Results gathered from unrelated publications.
A part holds a random share of what one study measured. Several values in a cell are separate wells, animals, samples, runs or records.
Chain of UniProt P11802 (whole entry, looked up): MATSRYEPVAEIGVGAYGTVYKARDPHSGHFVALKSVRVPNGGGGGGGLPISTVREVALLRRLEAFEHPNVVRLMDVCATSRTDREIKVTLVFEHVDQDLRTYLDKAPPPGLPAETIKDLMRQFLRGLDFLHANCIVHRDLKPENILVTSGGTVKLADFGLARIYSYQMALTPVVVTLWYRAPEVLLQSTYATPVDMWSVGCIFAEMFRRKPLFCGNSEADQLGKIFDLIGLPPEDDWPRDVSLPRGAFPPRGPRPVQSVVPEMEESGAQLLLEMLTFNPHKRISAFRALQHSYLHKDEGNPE
Chain of UniProt Q9BYT3 (whole entry, looked up): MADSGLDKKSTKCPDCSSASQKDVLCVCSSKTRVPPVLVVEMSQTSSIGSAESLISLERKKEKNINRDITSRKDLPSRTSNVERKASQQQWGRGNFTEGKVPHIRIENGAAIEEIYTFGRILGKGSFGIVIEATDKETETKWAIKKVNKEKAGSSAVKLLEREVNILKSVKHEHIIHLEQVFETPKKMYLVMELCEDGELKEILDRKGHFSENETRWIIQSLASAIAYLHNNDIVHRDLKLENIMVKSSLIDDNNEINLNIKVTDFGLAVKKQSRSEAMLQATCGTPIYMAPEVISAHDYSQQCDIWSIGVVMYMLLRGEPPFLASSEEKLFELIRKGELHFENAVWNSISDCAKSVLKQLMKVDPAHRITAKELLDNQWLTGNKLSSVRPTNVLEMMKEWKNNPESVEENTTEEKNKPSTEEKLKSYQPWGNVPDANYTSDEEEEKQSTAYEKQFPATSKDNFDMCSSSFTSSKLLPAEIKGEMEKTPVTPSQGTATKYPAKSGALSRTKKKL
Chain of UniProt Q13523 (whole entry, looked up): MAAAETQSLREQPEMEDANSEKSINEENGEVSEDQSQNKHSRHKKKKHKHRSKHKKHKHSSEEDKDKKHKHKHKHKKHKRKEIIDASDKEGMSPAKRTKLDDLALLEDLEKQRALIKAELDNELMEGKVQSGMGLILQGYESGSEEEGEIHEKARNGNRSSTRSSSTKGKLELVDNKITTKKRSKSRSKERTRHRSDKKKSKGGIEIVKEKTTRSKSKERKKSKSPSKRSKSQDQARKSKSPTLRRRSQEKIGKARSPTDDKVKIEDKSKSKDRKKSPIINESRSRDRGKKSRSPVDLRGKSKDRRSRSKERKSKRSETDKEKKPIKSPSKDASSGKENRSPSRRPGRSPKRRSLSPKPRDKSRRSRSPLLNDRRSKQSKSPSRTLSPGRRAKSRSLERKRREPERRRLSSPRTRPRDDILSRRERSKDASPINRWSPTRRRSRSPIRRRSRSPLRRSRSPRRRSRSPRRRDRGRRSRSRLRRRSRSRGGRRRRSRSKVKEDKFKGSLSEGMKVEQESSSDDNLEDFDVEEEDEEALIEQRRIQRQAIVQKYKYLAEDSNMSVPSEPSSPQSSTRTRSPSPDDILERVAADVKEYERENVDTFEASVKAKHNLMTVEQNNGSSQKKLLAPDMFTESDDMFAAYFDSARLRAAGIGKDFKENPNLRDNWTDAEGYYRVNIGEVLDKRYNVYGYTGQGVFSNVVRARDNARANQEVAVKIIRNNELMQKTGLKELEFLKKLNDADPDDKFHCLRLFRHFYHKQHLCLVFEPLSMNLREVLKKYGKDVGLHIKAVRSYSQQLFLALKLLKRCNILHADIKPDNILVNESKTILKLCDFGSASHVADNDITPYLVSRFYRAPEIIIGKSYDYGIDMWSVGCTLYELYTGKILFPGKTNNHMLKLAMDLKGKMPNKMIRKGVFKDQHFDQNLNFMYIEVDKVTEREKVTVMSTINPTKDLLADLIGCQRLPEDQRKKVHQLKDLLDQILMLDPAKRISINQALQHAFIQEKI
Chain of UniProt P0C1S8 (whole entry, looked up): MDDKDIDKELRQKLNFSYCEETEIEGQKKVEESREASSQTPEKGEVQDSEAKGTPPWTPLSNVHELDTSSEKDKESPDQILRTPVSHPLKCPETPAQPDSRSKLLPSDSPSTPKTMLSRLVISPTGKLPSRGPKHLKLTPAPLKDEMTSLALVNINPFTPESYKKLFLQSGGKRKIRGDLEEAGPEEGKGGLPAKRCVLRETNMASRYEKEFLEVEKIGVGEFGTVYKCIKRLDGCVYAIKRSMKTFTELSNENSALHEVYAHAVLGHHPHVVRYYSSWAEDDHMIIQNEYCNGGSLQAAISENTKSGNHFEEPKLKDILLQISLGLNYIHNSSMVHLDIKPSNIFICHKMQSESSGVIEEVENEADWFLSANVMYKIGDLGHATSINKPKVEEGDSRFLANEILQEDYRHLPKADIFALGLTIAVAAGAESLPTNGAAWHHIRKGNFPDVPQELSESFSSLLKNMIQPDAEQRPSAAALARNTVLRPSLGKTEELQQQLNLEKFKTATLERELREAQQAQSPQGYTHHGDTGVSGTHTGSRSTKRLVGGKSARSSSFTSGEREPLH
Chain of UniProt O43683 (whole entry, looked up): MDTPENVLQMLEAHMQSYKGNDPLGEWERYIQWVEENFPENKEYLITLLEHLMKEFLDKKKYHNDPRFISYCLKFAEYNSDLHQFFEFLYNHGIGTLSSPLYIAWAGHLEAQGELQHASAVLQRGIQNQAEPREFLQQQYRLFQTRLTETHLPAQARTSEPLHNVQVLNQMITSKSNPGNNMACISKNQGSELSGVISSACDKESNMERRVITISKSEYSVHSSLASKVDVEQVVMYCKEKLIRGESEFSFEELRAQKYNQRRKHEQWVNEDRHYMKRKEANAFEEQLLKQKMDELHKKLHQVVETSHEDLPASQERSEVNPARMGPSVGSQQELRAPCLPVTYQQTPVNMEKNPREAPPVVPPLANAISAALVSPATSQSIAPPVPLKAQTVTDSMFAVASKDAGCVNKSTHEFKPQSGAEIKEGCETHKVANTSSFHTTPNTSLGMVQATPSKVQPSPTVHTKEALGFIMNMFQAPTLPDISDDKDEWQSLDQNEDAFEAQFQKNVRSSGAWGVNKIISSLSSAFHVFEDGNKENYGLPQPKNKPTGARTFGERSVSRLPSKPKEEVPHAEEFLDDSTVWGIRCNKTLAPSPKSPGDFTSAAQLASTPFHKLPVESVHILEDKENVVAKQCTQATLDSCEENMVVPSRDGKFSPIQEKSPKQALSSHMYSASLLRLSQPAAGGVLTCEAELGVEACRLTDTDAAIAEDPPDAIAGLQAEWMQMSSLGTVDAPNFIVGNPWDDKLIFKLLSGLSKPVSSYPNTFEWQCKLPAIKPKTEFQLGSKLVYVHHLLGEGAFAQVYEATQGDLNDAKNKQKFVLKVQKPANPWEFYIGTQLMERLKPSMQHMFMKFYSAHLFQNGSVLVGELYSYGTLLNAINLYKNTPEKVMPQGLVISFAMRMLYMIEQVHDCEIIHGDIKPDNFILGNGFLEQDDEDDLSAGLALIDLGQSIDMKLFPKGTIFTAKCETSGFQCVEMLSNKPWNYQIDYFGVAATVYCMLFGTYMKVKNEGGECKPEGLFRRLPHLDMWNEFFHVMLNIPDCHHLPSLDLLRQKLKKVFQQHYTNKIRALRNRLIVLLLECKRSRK
Chain of UniProt Q13882 (whole entry, looked up): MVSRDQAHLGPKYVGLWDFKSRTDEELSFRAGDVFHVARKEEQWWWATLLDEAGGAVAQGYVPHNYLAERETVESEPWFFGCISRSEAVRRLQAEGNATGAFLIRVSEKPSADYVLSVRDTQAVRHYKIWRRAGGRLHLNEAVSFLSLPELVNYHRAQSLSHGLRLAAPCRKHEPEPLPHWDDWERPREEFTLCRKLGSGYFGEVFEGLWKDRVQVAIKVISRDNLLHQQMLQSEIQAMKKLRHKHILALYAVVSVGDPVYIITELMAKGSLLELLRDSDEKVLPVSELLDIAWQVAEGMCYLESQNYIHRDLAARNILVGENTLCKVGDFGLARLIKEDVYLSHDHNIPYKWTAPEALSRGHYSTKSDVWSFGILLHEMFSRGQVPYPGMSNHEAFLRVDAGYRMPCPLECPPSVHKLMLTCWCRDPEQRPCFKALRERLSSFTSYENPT
Chain of UniProt P51955 (whole entry, looked up): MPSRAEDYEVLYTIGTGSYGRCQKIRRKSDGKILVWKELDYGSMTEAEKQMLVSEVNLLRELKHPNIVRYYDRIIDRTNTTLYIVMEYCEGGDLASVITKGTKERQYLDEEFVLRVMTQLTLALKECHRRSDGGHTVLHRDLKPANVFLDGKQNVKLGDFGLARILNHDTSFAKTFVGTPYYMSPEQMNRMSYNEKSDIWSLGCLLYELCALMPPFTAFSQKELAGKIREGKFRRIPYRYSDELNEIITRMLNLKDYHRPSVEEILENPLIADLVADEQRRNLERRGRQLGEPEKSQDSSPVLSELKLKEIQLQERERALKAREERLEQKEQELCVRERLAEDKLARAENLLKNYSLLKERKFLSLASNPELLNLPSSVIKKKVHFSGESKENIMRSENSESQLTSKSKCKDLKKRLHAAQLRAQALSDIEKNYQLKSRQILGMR

Set 1 — cell line: mouse MPNST tumor cells; method: high-content nuclear imaging; item: cell number; concentration: 10 µM; time: 12 h; notes: mean of 2 replicates; relative to: plate mean; direction: higher = more cells
The nuclei count of `CN1CCN(C2=Nc3ccccc3Oc3ccc(Cl)cc32)CC1` is reported as 2.15 z-score.
For `COc1ccc(OC)c(C(O)CNC(=O)CN)c1` (stereo not drawn), the nuclei count was 1.84 z-score.
`NS(=O)(=O)c1cc(C(=O)O)c(NCc2ccco2)cc1Cl` gave a nuclei count of 0.81 z-score and 1.04 z-score.
`Cc1cn[nH]c1` has a nuclei count of 1.64 z-score and 1.99 z-score.
The nuclei count of `CCOc1cc2ncc(C#N)c(Nc3ccc(OCc4cccc(F)c4)c(Cl)c3)c2cc1NC(=O)/C=C/CN(C)C` is reported as 2.6 z-score.
`CCOC(=O)COc1ccc2c(c1)C[C@@H](NC[C@H](O)c1cccc(Cl)c1)CC2` has a nuclei count of 0.456 z-score.
With `O=c1cc(CN2CCOCC2)occ1OCCCCCSc1ccnc2cc(C(F)(F)F)ccc12` the nuclei count was 1.97 z-score.
`Oc1cccc(Nc2ccnc3cc(-c4cccc(CN5CCOCC5)c4)sc23)c1` has a nuclei count of -6.13 z-score.
With `CC(C)c1cc(-c2ccc(F)c3ccccc23)nc(N)n1` the nuclei count was 2.74 z-score.
`Nc1ccc(S(=O)(=O)c2ccc(N)cc2)cc1` gave a nuclei count of 0.122 z-score.
`CCCOc1ccc(Br)cc1-c1cc(-c2ccc(Cl)cc2)[nH]c1-c1ccncc1` gave a nuclei count of -0.081 z-score.
The nuclei count of `COc1ccc(S(=O)(=O)N2C(=O)[C@@](c3ccccc3OC)(N3C[C@H](O)C[C@H]3C(=O)N(C)C)c3cc(Cl)ccc32)c(OC)c1` is reported as 1.63 z-score.
For `CCOc1ccccc1OCCN[C@H](C)Cc1ccc(OC)c(S(N)(=O)=O)c1`, the nuclei count was -0.323 z-score.

Set 2 — host: human; medium: microsomes or S9; concentration: 2 µM; time: 0.5 h
The remaining compound of `O=C1c2ccccc2C2CC(c3ccc(-c4ccccc4)cc3)=NN12` (stereo not drawn) is reported as 34.8%.
The remaining compound of `COc1ccc2[nH]cc(CCN3C(=O)c4[nH]nc(-c5ccco5)c4C3c3cccc(O)c3)c2c1` (stereo not drawn) is reported as 4.93%.
The remaining compound of `Brc1ccc2ccnc(N3CCCC3)c2c1` is reported as 1.09%.
For `Cc1nc2cc(=O)[nH]n2c(C)c1CCC(=O)N[C@H](CO)C(C)C`, the remaining compound was 43.4%.
`CC(=O)c1[nH]c(C)c(C(=O)N[C@H]2C[C@@H](c3nnc(CO)n3C)C2)c1C` has a remaining compound of 89.1%.
The remaining compound of `CC(NC(=O)Nc1ccc(F)cc1Br)c1cn[nH]c1` (stereo not drawn) is reported as 92.3%.
With `O=C(CN1CCOCC1)N1CCC(c2nc(CCOCC3CCOCC3)no2)C1` (stereo not drawn) the remaining compound was > 100%.
The remaining compound of `O=C1C=C(O)CC(c2ccc(Cl)c(Cl)c2)C1` (stereo not drawn) is reported as 0%.
The remaining compound of `Cc1cc(NC(=O)NC(CCN(C)C)C(C)(C)C)n(C(C)(C)C)n1` (stereo not drawn) is reported as 95%.
The remaining compound of `COc1ccc(NC(=O)c2cc3cc(C)ccc3n2C)c(OC)c1` is reported as 67.6%.
With `CCc1cccc(C)c1/N=C1/N=C(N2CCOCC2)N(c2ccc(C)cc2)C12CCCCC2` the remaining compound was 89.4%.
For `CCOc1ccc(OCC)c(NC(=O)c2cc3c(Cl)ccc4c3n2CCO4)c1`, the remaining compound was 52.9%.
The remaining compound of `Cc1c[nH]c(CN2CCCCC2CCn2cccn2)c(C)c1=O` (stereo not drawn) is reported as 90.5%.
`CCC(CC)(CC)NC(=O)C1CCN(S(=O)(=O)CC)CC1` has a remaining compound of 14.9%.

Set 3 — observed: enzyme activity; action: inhibitor; concentration: 0.5 µM; relative to: control
Target: Cyclin-dependent kinase 6, with cyclin D1 (CDK6, Homo sapiens, UniProt Q00534)
Chain of UniProt Q00534 (whole entry, looked up): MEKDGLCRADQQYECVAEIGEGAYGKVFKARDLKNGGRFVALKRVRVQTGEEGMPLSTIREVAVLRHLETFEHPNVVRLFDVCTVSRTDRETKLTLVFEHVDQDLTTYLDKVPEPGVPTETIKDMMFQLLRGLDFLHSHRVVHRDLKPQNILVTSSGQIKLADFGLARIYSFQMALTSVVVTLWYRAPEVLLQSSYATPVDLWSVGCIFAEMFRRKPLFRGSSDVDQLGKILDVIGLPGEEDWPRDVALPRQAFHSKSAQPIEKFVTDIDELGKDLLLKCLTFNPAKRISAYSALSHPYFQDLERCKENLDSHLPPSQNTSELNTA
`Cc1cc(Nc2cc(N3CCN(C)CC3)nc(Sc3ccc(NC(=O)C4CC4)cc3)n2)[nH]n1` gave a remaining activity of 95.2%.
The remaining activity of `CN(C)S(=O)(=O)c1ccc2c(c1)/C(=C/c1cc3c([nH]1)CCCC3)C(=O)N2` is reported as 92.5%.
The remaining activity of `Oc1cccc(-c2nc(N3CCOCC3)c3oc4ncccc4c3n2)c1` is reported as 95.6%.
`N#Cc1cnc2cnc(NCc3cccnc3)cc2c1Nc1ccc(F)c(Cl)c1` gave a remaining activity of 92.2%.
With `O=C1Nc2ccccc2/C1=C\c1c(Cl)[nH]c2ccccc12` the remaining activity was 105%.
For `O=C1Nc2ccc(Br)cc2/C1=C/c1cc2c([nH]1)CCCC2`, the remaining activity was 90.4%.
With `c1ccc2c(-c3ccncc3)c[nH]c2c1` the remaining activity was 97.6%.
`CN1CCN(c2ccc3nc(-c4c(N)c5c(F)cccc5[nH]c4=O)[nH]c3c2)CC1` has a remaining activity of 74.6%.
With `Cc1ccc(S(=O)(=O)/C=C/C#N)cc1` the remaining activity was 91.4%.
With `O=Nc1c(-c2c(O)[nH]c3cc(Br)ccc23)[nH]c2ccccc12` the remaining activity was 35.9%.
With `O=C1NC(=O)c2c1c1c3ccccc3[nH]c1n1cncc21` the remaining activity was 65.7%.

Set 4 — observed: cell-free assay; method: competition with immobilised ligand; concentration: 0.1 µM
SMILES: CS(=O)(=O)N1CCCC(NC(=O)[C@H](CCC2CCCCC2)NC(=O)c2ccc(CNC(=O)c3cnc4ccccn34)cc2)C1 (stereo partly drawn)
LATS1 (Homo sapiens, UniProt O95835) — remaining binding: 98%.
It gave 35% for remaining binding (Tyrosine-protein kinase ABL1, non-phosphorylated (ABL1, Homo sapiens, UniProt P00519, H396P)).
For LCK (Homo sapiens, UniProt P06239): remaining binding read 83%.
It gave 81% for remaining binding (PTK6 (Homo sapiens, UniProt Q13882)).
It gave 86% for remaining binding (NEK2 (Homo sapiens, UniProt P51955)).
For FLT3 (Homo sapiens, UniProt P36888, D835H): remaining binding read 100%.
The remaining binding was 100% (MTOR (Homo sapiens, UniProt P42345)).
For PRPF4B (Homo sapiens, UniProt Q13523): remaining binding read 74%.
For MAP3K14 (Homo sapiens, UniProt Q99558): remaining binding read 100%.
It gave 84% for remaining binding (TGFBR1 (Homo sapiens, UniProt P36897)).
PIK3CA (Homo sapiens, UniProt P42336, H1047Y) — remaining binding: 84%.
CAMK1D (Homo sapiens, UniProt Q8IU85) — remaining binding: 88%.
The remaining binding was 100% (CDC42BPA (Homo sapiens, UniProt Q5VT25)).
For BUB1 (Homo sapiens, UniProt O43683): remaining binding read 100%.
ACVR2A (Homo sapiens, UniProt P27037) — remaining binding: 100%.
For CLK1 (Homo sapiens, UniProt P49759): remaining binding read 86%.
It gave 61% for remaining binding (CDK13 (Homo sapiens, UniProt Q14004)).
The remaining binding was 96% (PLK3 (Homo sapiens, UniProt Q9H4B4)).
It gave 88% for remaining binding (NTRK3 (Homo sapiens, UniProt Q16288)).
CDK4 (Homo sapiens, UniProt P11802) — remaining binding: 99%.
It gave 100% for remaining binding (STK33 (Homo sapiens, UniProt Q9BYT3)).
It gave 97% for remaining binding (WEE2 (Homo sapiens, UniProt P0C1S8)).

A few entries again (set 4):
For MAP3K14 (Homo sapiens, UniProt Q99558): remaining binding read 100%.
It gave 84% for remaining binding (TGFBR1 (Homo sapiens, UniProt P36897)).
PIK3CA (Homo sapiens, UniProt P42336, H1047Y) — remaining binding: 84%.
CAMK1D (Homo sapiens, UniProt Q8IU85) — remaining binding: 88%.
The remaining binding was 100% (CDC42BPA (Homo sapiens, UniProt Q5VT25)).
For BUB1 (Homo sapiens, UniProt O43683): remaining binding read 100%.
